Measured values from different studies.
Each numbered part is a random draw from the data of one study; scales do not carry over between parts. Values joined by “and” are separate records of one study, mostly repeats; a detail may differ.
UniProt P42336, sequence (whole entry, unmodified, looked up): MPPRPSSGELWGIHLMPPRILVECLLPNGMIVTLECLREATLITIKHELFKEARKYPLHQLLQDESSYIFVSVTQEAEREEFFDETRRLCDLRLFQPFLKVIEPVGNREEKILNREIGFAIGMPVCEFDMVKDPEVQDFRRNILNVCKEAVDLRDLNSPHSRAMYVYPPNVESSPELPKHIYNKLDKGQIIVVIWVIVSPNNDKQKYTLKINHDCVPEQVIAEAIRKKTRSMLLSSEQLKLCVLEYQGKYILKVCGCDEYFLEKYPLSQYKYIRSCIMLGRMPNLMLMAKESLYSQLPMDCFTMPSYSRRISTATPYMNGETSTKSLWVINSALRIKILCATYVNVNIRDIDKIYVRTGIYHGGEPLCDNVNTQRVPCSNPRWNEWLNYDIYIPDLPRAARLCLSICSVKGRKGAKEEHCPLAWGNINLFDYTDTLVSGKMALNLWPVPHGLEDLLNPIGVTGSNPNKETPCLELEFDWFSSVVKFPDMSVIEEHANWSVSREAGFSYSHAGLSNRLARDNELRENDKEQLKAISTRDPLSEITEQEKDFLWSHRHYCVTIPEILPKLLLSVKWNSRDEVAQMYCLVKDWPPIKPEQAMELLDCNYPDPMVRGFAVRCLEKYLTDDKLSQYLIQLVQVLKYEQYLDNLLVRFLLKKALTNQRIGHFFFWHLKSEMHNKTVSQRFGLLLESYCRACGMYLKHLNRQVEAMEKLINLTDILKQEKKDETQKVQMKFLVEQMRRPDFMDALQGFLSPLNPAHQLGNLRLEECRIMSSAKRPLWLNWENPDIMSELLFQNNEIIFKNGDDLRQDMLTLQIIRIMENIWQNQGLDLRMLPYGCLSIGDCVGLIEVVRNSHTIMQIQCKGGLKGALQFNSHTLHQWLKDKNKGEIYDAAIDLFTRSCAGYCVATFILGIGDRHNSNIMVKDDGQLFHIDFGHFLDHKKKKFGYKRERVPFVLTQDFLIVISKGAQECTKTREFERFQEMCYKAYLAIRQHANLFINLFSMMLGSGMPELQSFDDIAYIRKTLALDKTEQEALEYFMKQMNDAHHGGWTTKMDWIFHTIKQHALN
UniProt Q02156, sequence (whole entry, looked up): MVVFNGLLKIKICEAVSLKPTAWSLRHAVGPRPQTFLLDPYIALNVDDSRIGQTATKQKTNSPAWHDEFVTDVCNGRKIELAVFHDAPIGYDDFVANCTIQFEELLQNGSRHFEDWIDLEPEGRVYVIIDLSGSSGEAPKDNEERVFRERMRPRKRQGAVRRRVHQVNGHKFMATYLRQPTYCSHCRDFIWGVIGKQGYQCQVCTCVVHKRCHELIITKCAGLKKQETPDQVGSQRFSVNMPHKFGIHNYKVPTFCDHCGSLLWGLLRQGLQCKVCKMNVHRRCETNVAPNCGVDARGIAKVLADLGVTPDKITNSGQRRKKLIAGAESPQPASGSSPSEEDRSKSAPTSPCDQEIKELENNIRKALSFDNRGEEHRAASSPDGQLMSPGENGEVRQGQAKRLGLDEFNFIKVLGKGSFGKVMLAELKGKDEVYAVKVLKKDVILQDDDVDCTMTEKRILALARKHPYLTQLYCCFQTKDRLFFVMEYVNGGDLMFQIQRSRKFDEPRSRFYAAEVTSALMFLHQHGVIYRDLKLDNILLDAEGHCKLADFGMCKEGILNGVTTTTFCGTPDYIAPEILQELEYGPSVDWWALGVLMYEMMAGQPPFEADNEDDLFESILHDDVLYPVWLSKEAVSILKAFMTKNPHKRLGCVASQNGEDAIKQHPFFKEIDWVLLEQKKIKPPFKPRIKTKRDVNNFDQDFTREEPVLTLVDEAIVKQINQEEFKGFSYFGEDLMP
UniProt Q9H2G2, sequence (whole entry, looked up): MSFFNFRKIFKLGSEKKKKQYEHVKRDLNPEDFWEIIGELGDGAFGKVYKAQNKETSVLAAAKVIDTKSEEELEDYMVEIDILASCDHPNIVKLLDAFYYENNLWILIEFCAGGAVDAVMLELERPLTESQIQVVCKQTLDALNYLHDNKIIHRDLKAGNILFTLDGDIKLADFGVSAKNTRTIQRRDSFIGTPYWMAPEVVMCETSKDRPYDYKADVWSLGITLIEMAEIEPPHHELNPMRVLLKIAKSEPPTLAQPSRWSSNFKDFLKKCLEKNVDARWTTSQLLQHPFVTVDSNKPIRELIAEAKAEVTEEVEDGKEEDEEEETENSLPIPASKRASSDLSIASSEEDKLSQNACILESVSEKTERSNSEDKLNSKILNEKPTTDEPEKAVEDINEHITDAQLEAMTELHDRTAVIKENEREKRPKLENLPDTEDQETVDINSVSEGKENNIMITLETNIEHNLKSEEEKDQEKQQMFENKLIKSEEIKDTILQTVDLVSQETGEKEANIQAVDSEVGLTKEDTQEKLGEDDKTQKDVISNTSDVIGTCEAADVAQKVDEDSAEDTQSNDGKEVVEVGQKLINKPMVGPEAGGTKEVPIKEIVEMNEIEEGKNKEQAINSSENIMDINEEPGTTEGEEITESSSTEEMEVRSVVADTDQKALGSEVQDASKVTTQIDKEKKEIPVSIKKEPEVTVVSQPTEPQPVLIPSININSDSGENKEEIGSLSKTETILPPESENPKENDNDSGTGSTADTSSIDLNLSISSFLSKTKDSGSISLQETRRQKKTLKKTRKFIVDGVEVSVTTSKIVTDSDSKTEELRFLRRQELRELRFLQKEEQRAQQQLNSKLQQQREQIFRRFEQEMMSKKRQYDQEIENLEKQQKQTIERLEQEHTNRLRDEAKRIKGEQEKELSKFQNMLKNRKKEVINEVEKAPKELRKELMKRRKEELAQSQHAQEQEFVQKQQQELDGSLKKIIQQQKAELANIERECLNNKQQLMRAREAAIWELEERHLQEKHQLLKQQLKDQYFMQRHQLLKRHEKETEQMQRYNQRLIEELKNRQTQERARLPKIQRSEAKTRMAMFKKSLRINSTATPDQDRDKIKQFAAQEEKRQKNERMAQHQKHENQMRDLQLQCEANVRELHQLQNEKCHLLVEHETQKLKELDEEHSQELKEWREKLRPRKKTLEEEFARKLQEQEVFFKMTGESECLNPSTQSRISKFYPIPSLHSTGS
UniProt P41743, sequence (whole entry, looked up): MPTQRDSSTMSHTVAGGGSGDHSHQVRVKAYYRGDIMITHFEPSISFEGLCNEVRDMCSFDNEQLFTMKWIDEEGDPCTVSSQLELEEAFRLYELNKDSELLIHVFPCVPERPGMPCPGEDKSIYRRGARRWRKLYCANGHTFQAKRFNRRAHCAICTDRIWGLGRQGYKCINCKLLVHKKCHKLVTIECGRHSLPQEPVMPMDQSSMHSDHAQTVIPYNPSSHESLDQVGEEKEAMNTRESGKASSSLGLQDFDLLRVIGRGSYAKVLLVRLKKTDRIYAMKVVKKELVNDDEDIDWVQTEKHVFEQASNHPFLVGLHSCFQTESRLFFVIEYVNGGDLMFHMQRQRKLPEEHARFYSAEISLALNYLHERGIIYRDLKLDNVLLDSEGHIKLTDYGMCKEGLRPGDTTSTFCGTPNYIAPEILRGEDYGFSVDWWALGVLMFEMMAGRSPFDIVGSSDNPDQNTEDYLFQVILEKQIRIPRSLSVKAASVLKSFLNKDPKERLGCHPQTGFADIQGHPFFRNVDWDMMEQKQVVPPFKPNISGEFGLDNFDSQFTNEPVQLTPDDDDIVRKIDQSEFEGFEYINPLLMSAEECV
UniProt Q9BRS2, sequence (whole entry, looked up): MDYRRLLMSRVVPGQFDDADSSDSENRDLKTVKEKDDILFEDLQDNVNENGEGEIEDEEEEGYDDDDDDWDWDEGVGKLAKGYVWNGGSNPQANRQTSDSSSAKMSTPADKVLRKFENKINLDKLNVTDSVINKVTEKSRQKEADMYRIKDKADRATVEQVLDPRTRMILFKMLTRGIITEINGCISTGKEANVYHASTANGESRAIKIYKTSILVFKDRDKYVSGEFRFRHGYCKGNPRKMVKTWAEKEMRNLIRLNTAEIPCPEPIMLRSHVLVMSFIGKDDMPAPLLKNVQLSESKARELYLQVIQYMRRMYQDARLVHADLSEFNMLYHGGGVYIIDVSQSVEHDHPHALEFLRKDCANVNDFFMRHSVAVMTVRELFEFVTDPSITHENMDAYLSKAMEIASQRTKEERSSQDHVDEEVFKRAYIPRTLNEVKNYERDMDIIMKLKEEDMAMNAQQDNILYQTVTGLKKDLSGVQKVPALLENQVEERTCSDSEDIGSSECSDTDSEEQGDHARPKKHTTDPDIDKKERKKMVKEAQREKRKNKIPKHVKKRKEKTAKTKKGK
UniProt O15075, sequence (whole entry, looked up): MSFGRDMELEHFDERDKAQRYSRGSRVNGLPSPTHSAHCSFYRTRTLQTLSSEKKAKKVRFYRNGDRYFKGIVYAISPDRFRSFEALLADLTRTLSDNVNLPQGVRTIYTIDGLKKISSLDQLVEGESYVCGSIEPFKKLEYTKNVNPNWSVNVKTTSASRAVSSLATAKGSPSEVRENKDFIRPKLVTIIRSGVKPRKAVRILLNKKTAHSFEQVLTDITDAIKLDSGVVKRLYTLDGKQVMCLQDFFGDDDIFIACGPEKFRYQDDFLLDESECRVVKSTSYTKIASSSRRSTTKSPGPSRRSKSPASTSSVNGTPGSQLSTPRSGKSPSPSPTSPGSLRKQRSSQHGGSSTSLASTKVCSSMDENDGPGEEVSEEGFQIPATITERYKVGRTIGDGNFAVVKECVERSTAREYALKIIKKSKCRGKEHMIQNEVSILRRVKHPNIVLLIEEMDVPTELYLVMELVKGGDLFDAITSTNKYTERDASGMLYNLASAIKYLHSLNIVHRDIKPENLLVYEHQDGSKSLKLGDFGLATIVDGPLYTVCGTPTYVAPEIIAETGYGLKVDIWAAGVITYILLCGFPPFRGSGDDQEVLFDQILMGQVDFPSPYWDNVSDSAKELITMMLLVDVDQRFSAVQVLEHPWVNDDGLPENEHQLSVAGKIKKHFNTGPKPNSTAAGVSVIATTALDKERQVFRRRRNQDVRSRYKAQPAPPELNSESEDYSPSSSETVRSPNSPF

Study 1 — effect on: cell-free assay; method: competition with immobilised ligand; tested at: 1 µM
SMILES: CO[C@H]1CC[C@H](CNc2ccc(S(=O)(=O)NC(=O)c3ccc(N4CCN(CC5=C(c6ccc(Cl)cc6)CC(C)(C)CC5)CC4)cc3Oc3cnc4[nH]ccc4c3)cc2[N+](=O)[O-])CC1
| target | remaining binding |
| --- | --- |
| Phosphatidylinositol 4,5-bisphosphate 3-kinase catalytic subunit alpha isoform (PIK3CA, Homo sapiens, UniProt P42336, I800L) | 98% |
| STE20-like serine/threonine-protein kinase (SLK, Homo sapiens, UniProt Q9H2G2) | 67% |
| Serine/threonine-protein kinase DCLK1 (DCLK1, Homo sapiens, UniProt O15075) | 100% |
| Protein kinase C iota type (PRKCI, Homo sapiens, UniProt P41743) | 79% |
| Dual specificity tyrosine-phosphorylation-regulated kinase 2 (DYRK2, Homo sapiens, UniProt Q92630) | 100% |
| Atypical kinase COQ8A, mitochondrial (COQ8A, Homo sapiens, UniProt Q8NI60) | 99% |
| Phosphatidylinositol 4,5-bisphosphate 3-kinase catalytic subunit alpha isoform (PIK3CA, Homo sapiens, UniProt P42336, M1043I) | 74% |
| Cyclin-dependent kinase 18 (CDK18, Homo sapiens, UniProt Q07002) | 100% |
| Protein kinase C epsilon type (PRKCE, Homo sapiens, UniProt Q02156) | 79% |
| Serine/threonine-protein kinase RIO1 (RIOK1, Homo sapiens, UniProt Q9BRS2) | 100% |

Study 2 — host: mouse; medium: microsomes or S9; tested at: 2 µM; time: 0.5 h
| SMILES | remaining compound |
| --- | --- |
| CC(C)(C)CCN1CCN(C(=O)c2nccnc2N)CC1 | 69.4% |
| CCCn1nc(C)c(-c2cncn2CC(c2ccccc2Cl)N(C)C)c1C (stereo not drawn) | 7.18% |
| Cc1c(C(=O)Cn2nnn(-c3ccccc3)c2=O)sc2ccccc12 | 59.9% |
| CCN(CC)CCCNc1nc(-n2nc(C)cc2C)nc2sc3c(c12)CC(C)(C)OC3 | 4.73% |
| CN1C(=O)C(CC(=O)N2CCN(c3ccccn3)CC2)=C2CCCCC21 (stereo not drawn) | 2.2% |
| CC1(C)CC(S(=O)(=O)CC2(C)CC(c3ccc(Br)o3)=NO2)=NO1 (stereo not drawn) | 11.7% |
| COC(=O)c1ccc2c(c1)nc(-c1ccc(C(C)(C)C)cc1)n2Cc1ccc(F)cc1 | 46.3% |
| CC(O)CC(C)(C)CNC(=O)Nc1cc(CC(C)(C)C)nn1C (stereo not drawn) | 2.42% |

Study 3 — cell line: mouse MPNST tumor cells; method: high-content nuclear imaging; measured: cell number; tested at: 10 µM; time: 12 h; setting: mean of 2 replicates; relative to: plate mean; reading: higher = more cells
| SMILES | nuclei count |
| --- | --- |
| N=C(N)NC(=O)Cc1c(Cl)cccc1Cl | 1.75 z-score and 0.945 z-score |
| COc1ccc(CNC(=O)c2sc3nc(C)cc(C)c3c2N)cc1 | 2.94 z-score |
| O=C(O)c1ccccc1Nc1ccc(CCc2ccc(Cl)c(Cl)c2)cc1 | 1.95 z-score |
| COc1cc(NS(=O)(=O)c2ccc(N)cc2)nc(OC)n1 | 0.546 z-score |
| C[N+]1(C)CCC(OC(=O)C(O)(c2ccccc2)C2CCCC2)C1 (stereo not drawn) | 1.04 z-score |
| CCCCCCNC(=O)Nc1ccc(S(=O)(=O)Nc2ccc(CCNC[C@H](O)COc3ccc(O)cc3)cc2)cc1 | 1.52 z-score |
| CCN(CC)Cc1ccc2cc(COC(=O)Nc3ccc(C(=O)NO)cc3)ccc2c1 | -3.49 z-score |

Study 4 — organism: Plasmodium berghei; mode: inhibitor; cells: Huh-7; strain: GFP-expressing sporozoites, liver stage; tested at: 10 µM; time: 24 h; relative to: untreated control
| SMILES | infection rate [%] |
| --- | --- |
| CC1=C(C(=O)O)N2C(=O)[C@@H](NC(=O)[C@H](N)C3=CCC=CC3)[C@H]2SC1 | 96.4 |
| Nc1ccc(S(=O)(=O)c2ccc(N)cc2)cc1 | 105 |
| O=C(CCCN1CCC(O)(c2ccc(Br)cc2)CC1)c1ccc(F)cc1 | 64.4 |
| CCN1CCN(c2cc3c(cc2F)c(=O)c(C(=O)O)cn3C2CC2)CC1 | 84.1 |
| CC(=O)NCCCS(=O)(=O)O | 109 |
| CN(Cc1cc(Br)cc(Br)c1N)C1CCCCC1 | 114 |
| CCN(CC)C(=O)N1CCN(C)CC1 | 90.1 |
| O=C1CCc2cc(OCCCCc3nnnn3C3CCCCC3)ccc2N1 | 90.8 |

Some of these lines once more (study 1):
| target | remaining binding |
| --- | --- |
| Dual specificity tyrosine-phosphorylation-regulated kinase 2 (DYRK2, Homo sapiens, UniProt Q92630) | 100% |
| Atypical kinase COQ8A, mitochondrial (COQ8A, Homo sapiens, UniProt Q8NI60) | 99% |
| Phosphatidylinositol 4,5-bisphosphate 3-kinase catalytic subunit alpha isoform (PIK3CA, Homo sapiens, UniProt P42336, M1043I) | 74% |
| Cyclin-dependent kinase 18 (CDK18, Homo sapiens, UniProt Q07002) | 100% |
| Protein kinase C epsilon type (PRKCE, Homo sapiens, UniProt Q02156) | 79% |
| Serine/threonine-protein kinase RIO1 (RIOK1, Homo sapiens, UniProt Q9BRS2) | 100% |
